Published values collected from several papers.
Compare with care: the assays were run in different laboratories. Numbers after ± are the reported error.

CC[C@H](C)[C@H](NC(=O)[C@H](CCCCN)NC(=O)[C@H](Cc1ccc(O)cc1)NC(=O)[C@H](CCC(N)=O)NC(=O)[C@H](Cc1c[nH]cn1)NC(=O)[C@@H](NC(=O)[C@H](Cc1ccccc1)NC(=O)[C@H](Cc1c[nH]cn1)NC(=O)[C@@H](NC(=O)[C@@H](NC(=O)CNC(=O)[C@H](CCCNC(=N)N)NC(=O)[C@H](Cc1c[nH]c2ccccc12)NC(=O)[C@H](CC(C)C)NC(=O)[C@H](CO)NC(=O)[C@H](CCC(=O)O)NC(=O)[C@H](CC(C)C)NC(=O)[C@H](CCC(=O)O)NC(=O)[C@H](CC(N)=O)NC(=O)[C@H](CC(C)C)NC(=O)[C@H](CC(=O)O)NC(=O)[C@H](CO)NC(=O)[C@H](CCC(=O)O)NC(=O)[C@@H](NC(=O)[C@H](CC(C)C)NC(=O)[C@H](CCC(N)=O)NC(=O)[C@H](CCC(=O)O)NC(=O)[C@H](CCC(=O)O)NC(=O)[C@H](CC(C)C)NC(=O)[C@@H]1CCCN1C(=O)[C@@H](N)Cc1ccccc1)[C@@H](C)O)[C@@H](C)O)[C@@H](C)O)C(C)C)C(=O)N[C@@H](CCSC)C(=O)N1CCC[C@H]1C(=O)N[C@@H](Cc1ccccc1)C(=O)N[C@@H](CCCNC(=N)N)C(=O)N[C@@H](CCCCN)C(=O)N[C@@H](CC(C)C)C(=O)N[C@H](C(=O)N[C@@H](Cc1ccccc1)C(=O)N[C@@H](CCCCN)C(=O)N[C@@H](CCCNC(=N)N)C(=O)N[C@@H](CCCNC(=N)N)C(=O)N[C@@H](CCCCN)C(=O)N[C@@H](CC(N)=O)C(N)=O)C(C)C — viability (RAW264.7; WST-8; up to 25 µg/mL, 24 h; reference: water): no effect
CC[C@H](C)[C@H](NC(=O)CNC(=O)[C@H](C)NC(=O)[C@H](CCC(=O)O)NC(=O)[C@@H]1CCCN1C(=O)[C@H](CC(=O)O)NC(=O)[C@H](C)NC(=O)[C@H](CCC(=O)O)NC(=O)[C@H](C)NC(=O)[C@@H](N)CC(=O)O)C(=O)NCC(=O)N[C@@H](C)C(=O)N[C@H](C(=O)N[C@@H](CC(C)C)C(=O)N[C@@H](CCCCN)C(=O)N[C@H](C(=O)N[C@@H](CC(C)C)C(=O)N[C@H](C(=O)N[C@H](C(=O)NCC(=O)N[C@@H](CC(C)C)C(=O)N1CCC[C@H]1C(=O)N[C@@H](C)C(=O)N[C@@H](CC(C)C)C(=O)N[C@H](C(=O)N[C@@H](CO)C(=O)N[C@@H](Cc1c[nH]c2ccccc12)C(=O)N[C@H](C(=O)N[C@@H](CCCCN)C(=O)N[C@@H](CCCNC(=N)N)C(=O)N[C@@H](CCCCN)C(=O)N[C@@H](CCCNC(=N)N)C(=O)N[C@@H](CCC(N)=O)C(=O)N[C@@H](CCC(N)=O)C(N)=O)[C@@H](C)CC)[C@@H](C)CC)[C@@H](C)O)[C@@H](C)O)C(C)C)C(C)C — HD50 (human erythrocytes, washed; 1 h, 37 °C, 2% v/v RBC suspension): 22.3 ± 1.1 µmol/L
CC[C@H](C)C(=O)N1CCC(NC(=O)Nc2ccc(OC(F)(F)F)c(F)c2)CC1 — subjects with COVID-19 TEAE (healthy volunteers; oral, 16 mg single dose): 0%
CCCCCCCCCCCCCCCC(=O)N[C@@H](CCC(=O)NCCOCCOCCC(=O)NCCOCCOCCC(=O)NCCCC[C@H](NC(=O)[C@H](CC(=O)O)NC(=O)[C@H](CC(C)C)NC(=O)[C@H](Cc1ccc(O)cc1)NC(=O)[C@H](CCCCN)NC(=O)[C@H](CO)NC(=O)[C@H](Cc1ccc(O)cc1)NC(=O)[C@H](CC(=O)O)NC(=O)[C@H](CO)NC(=O)[C@@H](NC(=O)[C@H](Cc1ccccc1)NC(=O)[C@@H](NC(=O)CNC(=O)[C@H](CCC(N)=O)NC(=O)[C@@H](CO)NC(=O)[C@@H](N)Cc1c[nH]cn1)[C@@H](C)O)[C@@H](C)O)C(=O)N[C@@H](CCCNC(=N)N)C(=O)N[C@@H](CCCNC(=N)N)C(=O)N[C@@H](C)C(=O)N[C@@H](CCC(N)=O)C(=O)N[C@@H](CC(=O)O)C(=O)N[C@@H](Cc1ccccc1)C(=O)N[C@H](C(=O)N[C@@H](CCC(N)=O)C(=O)N[C@@H](Cc1c[nH]c2ccccc12)C(=O)N[C@@H](CC(C)C)C(=O)N[C@@H](CC(C)C)C(=O)N[C@@H](CC(N)=O)C(=O)N[C@H](C(=O)NCC(=O)NCC(=O)N1CCC[C@H]1C(=O)N[C@@H](CO)C(=O)N[C@@H](CO)C(=O)NCC(=O)N[C@@H](C)C(=O)N1CCC[C@H]1C(=O)N1CCC[C@H]1C(=O)N1CCC[C@H]1C(=O)N[C@@H](CO)C(N)=O)[C@@H](C)O)C(C)C)C(=O)O — Cmax (rhesus monkey, male, plasma; subcutaneous, 300 µg/kg, day 1, toxicokinetics, mean): 602 ng/mL
CC[C@H](C)[C@H](NC(=O)[C@H](CO)NC(=O)[C@H](Cc1ccc(O)cc1)NC(=O)[C@H](CC(=O)O)NC(=O)[C@H](CO)NC(=O)[C@@H](NC(=O)[C@H](Cc1ccccc1)NC(=O)[C@@H](NC(=O)CNC(=O)[C@H](CCC(=O)O)NC(=O)[C@@H](C)NC(=O)[C@@H](N)Cc1ccc(O)cc1)[C@@H](C)O)[C@@H](C)CC)C(=O)N[C@@H](C)C(=O)N[C@@H](CCSC)C(=O)N[C@@H](CC(=O)O)C(=O)N[C@@H](CCCCN)C(=O)N[C@H](C(=O)N[C@@H](Cc1c[nH]cn1)C(=O)N[C@@H](CCC(N)=O)C(=O)N[C@@H](CCC(N)=O)C(=O)N[C@@H](CC(=O)O)C(=O)N[C@@H](Cc1ccccc1)C(=O)N[C@H](C(=O)N[C@@H](CC(N)=O)C(=O)N[C@@H](Cc1c[nH]c2ccccc12)C(=O)N[C@@H](CC(C)C)C(=O)N[C@@H](CC(C)C)C(=O)N[C@@H](C)C(=O)N[C@@H](CCC(N)=O)C(=O)N[C@@H](CCCCN)C(=O)N1CCC[C@H]1C(=O)N[C@@H](CO)C(=O)N[C@@H](CO)C(=O)NCC(=O)N[C@@H](C)C(=O)N1CCC[C@H]1C(=O)N1CCC[C@H]1C(=O)N1CCC[C@H]1C(=O)N[C@@H](CO)C(N)=O)C(C)C)[C@@H](C)CC — resistin (HF-STZ diabetic mouse, plasma; continuous infusion, 100 nmol/kg/day, 4 weeks): 1.6 ± 0.1 ng/mL
CC[C@H](C)[C@H](NC(=O)[C@H](CCCN)NC(=O)[C@H](CC(=O)O)NC(=O)[C@H](CC(C)C)NC(=O)C(C)(CC(C)C)NC(=O)[C@@H](NC(=O)[C@H](CO)NC(=O)[C@H](Cc1ccc(O)cc1)NC(=O)[C@H](CC(=O)O)NC(=O)[C@H](CO)NC(=O)[C@@H](NC(=O)[C@H](Cc1ccccc1)NC(=O)[C@@H](NC(=O)CNC(=O)[C@H](CCC(=O)O)NC(=O)C(C)(C)NC(=O)[C@@H](N)Cc1ccc(O)cc1)[C@@H](C)O)[C@@H](C)CC)[C@@H](C)CC)C(=O)N[C@@H](Cc1c[nH]cn1)C(=O)N[C@@H](CCC(N)=O)C(=O)NC(C)(C)C(=O)N[C@@H](CC(=O)O)C(=O)N[C@@H](Cc1ccccc1)C(=O)N[C@H](C(=O)N[C@@H](CCC(=O)O)C(=O)N[C@@H](Cc1ccc(O)cc1)C(=O)N[C@@H](CCCCNC(=O)COCCOCCNC(=O)COCCOCCNC(=O)CC[C@H](NC(=O)CCCCCCCCCCCCCCCCCCC(=O)O)C(=O)O)C(=O)N[C@@H](CC(C)C)C(=O)N[C@@H](CCC(=O)O)C(=O)NCC(=O)NCC(=O)N1CCC[C@H]1C(=O)N[C@@H](CO)C(=O)N[C@@H](CO)C(=O)NCC(=O)N[C@@H](C)C(=O)N1CCC[C@H]1C(=O)N1CCC[C@H]1C(=O)N1CCC[C@H]1C(=O)N[C@@H](CO)C(N)=O)C(C)C (some centres unmarked) — Tmax (human, plasma; subcutaneous, 25 mg, single dose, healthy volunteers): 84 h
CCCCCCCCCCCCCCCC(=O)N[C@@H](CCC(=O)NCCCC[C@H](NC(=O)[C@H](CC(=O)O)NC(=O)[C@H](CO)NC(=O)[C@@H](NC(=O)[C@H](Cc1ccccc1)NC(=O)[C@@H](NC(=O)CNC(=O)[C@H](CCC(N)=O)NC(=O)[C@H](C)NC(=O)[C@@H](Cc1ccc(O)cc1)NC(C)=O)[C@@H](C)O)[C@@H](C)O)C(=O)N[C@@H](CO)C(=O)N[C@@H](CCCCN)C(=O)N[C@@H](Cc1ccc(O)cc1)C(=O)N[C@@H](CC(C)C)C(=O)N[C@@H](CC(=O)O)C(=O)N[C@@H](CCC(=O)O)C(=O)N[C@@H](CCCNC(=N)N)C(=O)N[C@@H](C)C(=O)N[C@@H](C)C(=O)N[C@@H](CCC(N)=O)C(=O)N[C@@H](CC(=O)O)C(=O)N[C@@H](Cc1ccccc1)C(=O)N[C@H](C(=O)N[C@@H](CCC(N)=O)C(=O)N[C@@H](Cc1c[nH]c2ccccc12)C(=O)N[C@@H](CC(C)C)C(=O)N[C@@H](CC(C)C)C(=O)N[C@@H](CCC(=O)O)C(=O)NCC(=O)NCC(=O)N1CCC[C@H]1C(=O)N[C@@H](CO)C(=O)N[C@@H](CO)C(=O)NCC(=O)N[C@@H](C)C(=O)N1CCC[C@H]1C(=O)N1CCC[C@H]1C(=O)N1CCC[C@H]1C(=O)N[C@@H](CO)C(N)=O)C(C)C)C(=O)O — Cmax (male Wistar rat, plasma; subcutaneous, 0.02 mg/kg): 21.6 ng/mL
CCc1ccccc1NC(=S)N/N=C/c1ccc(O)cc1O — viability (MCF7; 800 µM): < 30%

A few entries again:
CC[C@H](C)[C@H](NC(=O)[C@H](CCCCN)NC(=O)[C@H](Cc1ccc(O)cc1)NC(=O)[C@H](CCC(N)=O)NC(=O)[C@H](Cc1c[nH]cn1)NC(=O)[C@@H](NC(=O)[C@H](Cc1ccccc1)NC(=O)[C@H](Cc1c[nH]cn1)NC(=O)[C@@H](NC(=O)[C@@H](NC(=O)CNC(=O)[C@H](CCCNC(=N)N)NC(=O)[C@H](Cc1c[nH]c2ccccc12)NC(=O)[C@H](CC(C)C)NC(=O)[C@H](CO)NC(=O)[C@H](CCC(=O)O)NC(=O)[C@H](CC(C)C)NC(=O)[C@H](CCC(=O)O)NC(=O)[C@H](CC(N)=O)NC(=O)[C@H](CC(C)C)NC(=O)[C@H](CC(=O)O)NC(=O)[C@H](CO)NC(=O)[C@H](CCC(=O)O)NC(=O)[C@@H](NC(=O)[C@H](CC(C)C)NC(=O)[C@H](CCC(N)=O)NC(=O)[C@H](CCC(=O)O)NC(=O)[C@H](CCC(=O)O)NC(=O)[C@H](CC(C)C)NC(=O)[C@@H]1CCCN1C(=O)[C@@H](N)Cc1ccccc1)[C@@H](C)O)[C@@H](C)O)[C@@H](C)O)C(C)C)C(=O)N[C@@H](CCSC)C(=O)N1CCC[C@H]1C(=O)N[C@@H](Cc1ccccc1)C(=O)N[C@@H](CCCNC(=N)N)C(=O)N[C@@H](CCCCN)C(=O)N[C@@H](CC(C)C)C(=O)N[C@H](C(=O)N[C@@H](Cc1ccccc1)C(=O)N[C@@H](CCCCN)C(=O)N[C@@H](CCCNC(=N)N)C(=O)N[C@@H](CCCNC(=N)N)C(=O)N[C@@H](CCCCN)C(=O)N[C@@H](CC(N)=O)C(N)=O)C(C)C — viability (RAW264.7; WST-8; up to 25 µg/mL, 24 h; reference: water): no effect
